Assay results collected from several papers.
Lines come from different studies, so protocols differ. “And” joins repeats or separate records; there may be more than shown. ± gives the spread as reported.

Structure (SMILES) | assay | system | setting | scale | quantity | value
CC[C@@H]1C[C@]1(NC(=O)[C@@H]1C[C@@]2(CN1C(=O)[C@@H](NC(=O)[C@@H](NC(=O)[C@@H]1CCCCN1C(C)C)C1CCCCC1)C(C)(C)C)C(C)(C)C21CCC1)C(=O)NS(=O)(=O)N1CCCC1 | item: vomiting | human fasted | oral, 100 mg single dose |  | subjects with adverse event | 0%
C[C@H](NCc1ccc(-c2ccc(C(F)(F)F)cc2)cc1)C(N)=O | metabolic stability | human, liver microsomes | 1 µM, 30 min, pH 7.4 |  | compound remaining | 92%
[2H]C([2H])([2H])C([2H])([2H])C([2H])([2H])OC(C(=O)OC1CCNCC1)(c1ccccc1)c1ccccc1 |  | healthy Japanese male subjects, plasma | oral, 15 mg once daily, day 16, fed, mean |  | Cmax | 157 ng/mL
CC[C@H](C)[C@@H]1NC(=O)[C@H](CCCCN)NC(=O)[C@H](CCCCN)NC(=O)[C@H](Cc2ccc(O)cc2)NC(=O)[C@H](CC(C)C)NC(=O)[C@@H]2CCCN2C(=O)[C@H](C)NC(=O)CNC(=O)CNC(=O)[C@H](CO)NC(=O)CNC(=O)CNC(=O)[C@H](CO)NC(=O)[C@H](CCC(=O)O)NC(=O)[C@H](CC(C)C)NC(=O)[C@H](CC(C)C)NC(=O)[C@H](CCCCN)NC(=O)[C@H](CCCNC(=N)N)NC(=O)[C@H]([C@@H](C)CC)NC(=O)[C@H]([C@@H](C)CC)NC(=O)[C@H](CCCCN)NC(=O)[C@H](CCCCN)NC(=O)[C@H](Cc2ccc(O)cc2)NC(=O)[C@H](CC(C)C)NC(=O)[C@@H]2CCCN2C(=O)CNC(=O)CNC(=O)[C@@H](NC(=O)CN)CSSC[C@@H](C(N)=O)NC(=O)[C@H](CC(C)C)NC(=O)[C@H](CCCCN)NC(=O)[C@H](CCCNC(=N)N)NC(=O)[C@H]([C@@H](C)CC)NC1=O |  | 25% human serum | 50 µM, 24 h | baseline: 0 h control | remaining intact peptide | 5.6 ± 0.2%
COc1ccc(NC(=O)Cn2c(=O)c3ccccc3n(CC(=O)Nc3cc([125I])c(OC)cc3OC)c2=O)cc1 |  | rat, brain | intravenous, 30 min |  | tracer uptake | 0.01 %ID/g
C[C@H]1C(OC(=O)C(Cl)Cl)O[C@@H]2O[C@@]3(C)CC[C@H]4[C@H](C)CCC1[C@@]24OO3 (stereo partly shown) |  | Tg(fli1:EGFP) zebrafish embryos | 50 µg/mL, up to 48 hpf |  | dead embryos | 0 count
COc1ccc(F)cc1S(=O)(=O)Nc1cnc2c(c1)C(=O)NCCO2 |  | male cynomolgus monkey, plasma | oral vs intravenous, 0.3 mg/kg |  | oral bioavailability | 73.9%
CCN1CCCC1CNC(=O)c1cc(Br)cc(OC)c1O[11CH3] (stereo not shown) | PET | rhesus monkey, brain, mean of regions |  |  | k2 tissue-to-plasma efflux | 0.18 min⁻¹
O=C(NCCCCn1ccc2ccccc21)Oc1ccccc1 |  | porcine plasma | 20 µM, 30 min |  | parent remaining | 82 ± 9%
COc1cc(NC(=O)C(=O)c2c(C)n(Cc3ccc(Cl)cc3)c3ccc(C)cc23)ccn1 |  | cynomolgus monkey, female, plasma | oral, 10 mg/kg |  | oral bioavailability | 19.3% and 15.3% and 13.7% and 23.6% and 31.1% and 21.8%
[3H]c1sc(C)nc1C=C(C)C1CC2C(CCCC(C)C(O)C(C)C(=O)C(C)(C)C(O)CC(=O)O1)N2CCO (stereo not shown) | whole-body autoradiography | CD2F1 mice, intestine contents | intravenous, 2.2 nmol/kg, 0.5 h |  | radioactivity in tissue | 49.4 ± 26.2 µg-eq/g
CC(C)[C@H](NC(=O)[C@H](Cc1c[nH]c2ccccc12)NC(=O)[C@H](Cc1ccccc1)NC(=O)[C@@H](NC(=O)[C@@H](NC(=O)[C@H](CCCCN)NC(=O)[C@@H](N)CCCCN)C(C)C)C(C)C)C(=O)N[C@@H](CCCCN)C(=O)N[C@@H](Cc1ccccc1)C(=O)N[C@@H](CCCCN)C(N)=O | ELISA, item: TNF-α | mouse, blood | intravenous, 500 µg/kg, 5 days |  | cytokine level | 205 ± 17.4 pg/mL
O=C(NCCNCCO)c1cn(Cc2ccccc2)c2cc(OCc3ccc(C(F)(F)F)cc3)c(Cl)cc2c1=O | metabolic stability | male rat, liver microsomes | 1 µM |  | microsomal CLint | < 11.6 µL/min/mg
CCc1c2c(nc3ccc(OC4OC(C(=O)O)C(O)C(O)C4O)cc13)-c1cc3c(c(=O)n1C2)COC(=O)C3(O)CC (stereo not shown) |  | human patients, plasma | intravenous, 42 mg/m^2 of parent drug |  | Cmax | 57 ng/mL
COC(=O)C[C@](O)(CCCC(C)(C)OC(C)=O)C(=O)O[C@@H]1C(OC)=C[C@]23CCCN2CCc2cc4c(cc2[C@H]13)OCO4 |  | CD1 mouse, lung | oral, 1 mg/kg, 24 h, below quantification limit 1.00 ng/mL |  | tissue concentration | not detected
NCCCC[C@H](NC(=O)[C@H](Cc1ccccc1)NC(=O)[C@H](CCCCN)NC(=O)[C@H](Cc1ccccc1)NC(=O)[C@H](CCC(=O)O)NC(=O)[C@H](Cc1ccccc1)NC(=O)[C@H](CCC(=O)O)NC(=O)[C@@H](N)Cc1ccccc1)C(=O)O | RP-HPLC | cell-free hydrogel in medium | day 12, 10% FBS | baseline: day 0 | intact peptide remaining | 5.3 ± 1.3%

Structure (SMILES) | assay | system | setting | scale | quantity | value
CC[C@H](C)[C@H](NC(=O)[C@H](Cc1ccccc1)NC(=O)[C@H](CC(=O)O)NC(=O)[C@H](CCCNC(=N)N)NC(=O)[C@H](Cc1ccccc1)NC(=O)[C@H](Cc1ccccc1)NC(=O)[C@H](CCCCN)NC(=O)[C@H](CO)NC(=O)[C@H](CC(C)C)NC(=O)[C@H](CCCNC(=N)N)NC(=O)[C@H](CCSC)NC(=O)[C@H](C)N)C(=O)N[C@@H](CCCCN)C(=O)N[C@@H](CCC(N)=O)C(=O)N[C@@H](CCCNC(=N)N)C(=O)N[C@@H](CCCCN)C(=O)N[C@@H](CCCCN)C(=O)O | circular dichroism | 20% TFE in PBS | 200 µM, pH 7.4, 25 °C |  | helicity | 15%
CCCCCCCCCCCCC(=O)O.O=C1CCCC2C3CCCN4CCCC(CN12)C34 (stereo not shown) | electrical conductivity | water | 298.15 K |  | entropic term −TΔS of aggregation | -7.68 kcal/mol
O=c1cc(-c2ccccc2)oc2c(Br)c(O)c(O)c(O)c12 |  | C57BL/6 mouse, plasma | intravenous, 10 mg/kg, single dose |  | MRT(0-inf) | 2 h
CC[C@H](C)C(=O)N1CCC(NC(=O)Nc2ccc(OC(F)(F)F)c(F)c2)CC1 |  | healthy volunteers, both sexes | oral, 8 mg single dose, fasted state |  | participants with any Treatment‐Related TEAE | 0%
[11CH3]n1c(=O)n(CCCO)c(=O)c2c1nc(Oc1cccc(OC(F)(F)F)c1)n2Cc1ccc(Cl)cc1 | ex vivo biodistribution | Sprague Dawley rat, blood | 30 min post injection |  | tracer uptake | 0.2 ± 0.01 %ID/g
CC[C@H](C)[C@H](NC(=O)[C@H](CC(=O)O)NC(=O)[C@H](CO)NC(=O)[C@H](CCC(N)=O)NC(=O)[C@H](C)NC(=O)[C@H](CC(=O)O)NC(=O)[C@H](CCC(=O)O)NC(=O)[C@H](Cc1c[nH]cn1)NC(=O)[C@H](Cc1ccc(O)cc1)NC(=O)[C@H](C)NC(=O)[C@H](CC(=O)O)NC(=O)[C@H](CCC(=O)O)NC(=O)[C@H](Cc1c[nH]cn1)NC(=O)[C@H](Cc1ccc(O)cc1)NC(=O)[C@H](C)NC(=O)[C@H](CC(=O)O)NC(=O)[C@H](CCC(=O)O)NC(=O)[C@H](Cc1c[nH]cn1)NC(=O)[C@H](Cc1ccc(O)cc1)NC(=O)[C@H](C)NC(=O)[C@H](CC(=O)O)NC(=O)[C@H](CCC(=O)O)NC(=O)[C@H](Cc1c[nH]cn1)NC(=O)[C@H](Cc1ccc(O)cc1)NC(=O)[C@H](C)NC(=O)[C@H](CC(=O)O)NC(=O)[C@H](CCC(=O)O)NC(=O)[C@H](Cc1c[nH]cn1)NC(=O)[C@@H](N)Cc1ccc(O)cc1)C(=O)N[C@H](C(=O)N[C@@H](C)C(=O)N[C@@H](Cc1c[nH]cn1)C(=O)N[C@@H](CC(C)C)C(=O)N[C@@H](CC(C)C)C(=O)O)C(C)C |  | normal mouse | dose not given |  | MCV | 46.5 ± 3 fL
C#Cc1c(F)ccc2cc(O)cc(-c3ncc4c(N5CC6CCC(C5)N6C(=O)/C(C)=C(/C)C(=O)OCCCC)nc(OC[C@@]56CCCN5C[C@H](F)C6)nc4c3F)c12 |  | mouse whole blood | 60 min |  | parent drug release | not detected
CN(C)C(CNC(=O)Nc1cc(C(F)(F)F)ccc1N1CCOCC1)c1ccncc1 (stereo not shown) |  | mouse, serum | intraperitoneal, 120 mg/kg single dose |  | serum AST | 628 U/L
N=C(N)NCc1ccc(C(=O)NCCCC[C@H](NC(=O)N[C@@H](CCC(=O)O)C(=O)O)C(=O)O)cc1[211At] |  | SCID mouse, PC-3 xenografts, bone | 21 h |  | tissue uptake | 0.09 ± 0.03 %ID/g
O=C(CN1CCN(c2cc3c(cc2F)c(=O)c(C(=O)O)cn3C2CC2)CC1)Nc1ccc(Cl)cc1 | two-compartment model, item: k10 | BALB/c mice, female | iv, 3.75 mg/kg |  | rate constant | 0.00199 min⁻¹
Nc1ccc(OC(=O)NC2CCCCC2)cc1-c1ccccc1 |  | rat plasma |  |  | log hydrolysis rate constant | -3.05
CC(C)C[C@H](NC(=O)CNC(=O)[C@H](CCC(=O)O)NC(=O)[C@H](CCCCN)NC(=O)[C@H](CC(C)C)NC(=O)[C@H](C)NC(=O)[C@H](C)NC(=O)CNC(=O)[C@H](C)NC(=O)[C@H](CCCCN)NC(=O)[C@H](CCC(=O)O)NC(=O)[C@H](CC(C)C)NC(=O)[C@H](CCCCN)NC(=O)[C@H](CCCCN)NC(=O)[C@H](CC(C)C)NC(=O)[C@H](CC(C)C)NC(=O)[C@H](CCCCN)NC(=O)[C@H](Cc1c[nH]c2ccccc12)NC(=O)[C@@H](N)CCCCN)C(=O)N[C@@H](CC(C)C)C(=O)N[C@@H](CCCCN)C(=O)N[C@@H](C)C(=O)NCC(=O)N1CCC[C@H]1C(=O)N[C@@H](C)C(=O)N[C@@H](CC(C)C)C(=O)N[C@@H](C)C(=O)N[C@@H](CC(C)C)C(=O)N[C@@H](CC(C)C)C(=O)NCC(=O)N[C@@H](C)C(=O)N[C@@H](C)C(=O)N[C@@H](C)C(=O)N[C@@H](C)C(=O)N[C@@H](CC(C)C)C(=O)N[C@@H](C)C(=O)N[C@@H](CCCCN)C(N)=O | circular dichroism | phosphate buffer 10 mM | 1 to 5 µM, pH 7.5, approximate |  | helicity | ~30%
CC(C)[C@H](NC(=O)CNC(=O)[C@H](CCC(N)=O)NC(=O)[C@H](C)N)C(=O)O |  | human | intravenous infusion, 90 mg/kg/h, 2 h infusion |  | subjects with moderate adverse events | 0%
NC(=S)N/N=C/c1ccc(OCc2cccc(F)c2)cc1 |  | PAMPA-BBB | pH 7.4 |  | Papp | 4.08 ×10⁻⁶ cm/s
CC(C)C[C@H](NC(=O)[C@H](Cc1ccccc1)NC(=O)CNC(=O)C/C=C(\F)[C@@H](N)Cc1ccc(O)cc1)C(=O)O |  | BALB/c mouse, plasma |  |  | t1/2 | 0.367 h

For quick reference, copied from above:
Structure (SMILES) | assay | system | setting | scale | quantity | value
O=c1cc(-c2ccccc2)oc2c(Br)c(O)c(O)c(O)c12 |  | C57BL/6 mouse, plasma | intravenous, 10 mg/kg, single dose |  | MRT(0-inf) | 2 h
CC[C@H](C)C(=O)N1CCC(NC(=O)Nc2ccc(OC(F)(F)F)c(F)c2)CC1 |  | healthy volunteers, both sexes | oral, 8 mg single dose, fasted state |  | participants with any Treatment‐Related TEAE | 0%
[11CH3]n1c(=O)n(CCCO)c(=O)c2c1nc(Oc1cccc(OC(F)(F)F)c1)n2Cc1ccc(Cl)cc1 | ex vivo biodistribution | Sprague Dawley rat, blood | 30 min post injection |  | tracer uptake | 0.2 ± 0.01 %ID/g
